{"data": "Measured values of several laboratories", "note": "Numbered parts are unrelated; each lists some results of a single study."}
{"data": "Block 1", "target": "Histone acetyltransferase KAT6A, both winged helices, GST fusion (KAT6A, Homo sapiens, UniProt Q92794, residues 1-181)", "method": "protein binding microarray", "molecule type": "double-stranded DNA, one strand shown", "medium": "in vitro", "tested at": "not given", "setting": "8-mer, flanks averaged, mean of 2 arrays, mostly near background", "reference": "not given", "reading": "higher = stronger binding", "Residues (chain)": "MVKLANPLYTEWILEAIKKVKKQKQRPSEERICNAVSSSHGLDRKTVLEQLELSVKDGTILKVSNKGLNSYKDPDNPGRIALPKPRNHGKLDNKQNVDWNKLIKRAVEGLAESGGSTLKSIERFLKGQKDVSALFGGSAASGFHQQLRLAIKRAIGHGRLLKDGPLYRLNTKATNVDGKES"}
{"Sequence": "CAGTGTAG", "E-score": -0.171}
{"Sequence": "CCTACACA", "E-score": -0.138}
{"Sequence": "CGCCGGCC", "E-score": 0.358}
{"data": "Block 2", "target": "Prothrombin, mature alpha-thrombin (F2, Homo sapiens, UniProt P00734)", "method": "aptamer microarray, sandwich", "molecule type": "DNA with 2'F-ANA", "medium": "in vitro", "tested at": "200 nM", "setting": "whole 15-mer aptamer, many near background", "with": "Cy3 exosite-II aptamer, 400 nM", "reading": "higher = stronger binding"}
{"Sequence": "GGTTGGTGTGGTTGG (2'F-ANA at 1 5 7 8 9 10 12 13 14 15)", "mean fluorescence intensity": "46.4 a.u."}
{"Sequence": "GGTTGGTGTGGTTGG (2'F-ANA at 2 8 10 12 14 15)", "mean fluorescence intensity": "83.1 a.u."}
{"Sequence": "GGTTGGTGTGGTTGG (2'F-ANA at 1 3 4 7 8 9 12 15)", "mean fluorescence intensity": "489 a.u."}
{"data": "Block 3", "target": "Sal-like protein 4, full length isoform A (SALL4, Homo sapiens, UniProt Q9UJQ4, residues 1-1053)", "method": "universal PBM", "molecule type": "double-stranded DNA, one strand shown", "medium": "in vitro", "tested at": "600 nM", "setting": "8-mer, flanks averaged, mean of replicates", "reading": "higher = stronger binding", "sequence of UniProt Q9UJQ4 (whole entry, looked up)": "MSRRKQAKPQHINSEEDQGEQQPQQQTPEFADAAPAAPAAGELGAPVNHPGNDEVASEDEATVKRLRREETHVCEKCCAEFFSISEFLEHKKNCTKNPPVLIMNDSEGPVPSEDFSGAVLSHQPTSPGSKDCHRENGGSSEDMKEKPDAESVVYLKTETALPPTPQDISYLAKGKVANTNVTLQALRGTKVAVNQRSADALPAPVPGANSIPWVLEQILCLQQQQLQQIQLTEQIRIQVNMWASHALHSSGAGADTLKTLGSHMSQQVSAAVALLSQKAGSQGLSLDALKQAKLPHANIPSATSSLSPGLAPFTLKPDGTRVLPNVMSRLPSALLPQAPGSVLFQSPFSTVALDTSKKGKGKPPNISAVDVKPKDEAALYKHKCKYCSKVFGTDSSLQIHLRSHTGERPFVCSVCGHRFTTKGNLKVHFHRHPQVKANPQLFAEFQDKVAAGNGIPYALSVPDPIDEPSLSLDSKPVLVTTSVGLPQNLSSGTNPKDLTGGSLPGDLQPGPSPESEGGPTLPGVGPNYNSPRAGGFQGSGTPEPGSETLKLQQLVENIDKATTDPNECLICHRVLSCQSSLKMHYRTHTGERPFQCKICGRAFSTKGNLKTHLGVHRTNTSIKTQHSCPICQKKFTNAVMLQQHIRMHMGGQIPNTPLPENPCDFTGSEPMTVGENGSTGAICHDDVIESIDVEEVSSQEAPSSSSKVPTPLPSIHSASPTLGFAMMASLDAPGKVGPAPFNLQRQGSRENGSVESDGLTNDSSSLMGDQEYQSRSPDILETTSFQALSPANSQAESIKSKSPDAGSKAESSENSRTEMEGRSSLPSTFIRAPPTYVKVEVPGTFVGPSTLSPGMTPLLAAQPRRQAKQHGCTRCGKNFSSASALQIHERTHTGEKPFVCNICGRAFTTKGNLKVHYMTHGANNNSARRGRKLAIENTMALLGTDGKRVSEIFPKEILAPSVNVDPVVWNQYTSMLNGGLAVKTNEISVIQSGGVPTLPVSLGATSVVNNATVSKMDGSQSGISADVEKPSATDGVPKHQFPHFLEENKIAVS"}
{"Sequence": "GTTTCCCA", "E-score": -0.122}
{"Sequence": "CACGGATA", "E-score": 0.127}
{"Sequence": "GCGACTTA", "E-score": -0.0648}
{"Sequence": "ATCAACTA", "E-score": 0.26}
{"data": "Other studies, line by line"}
{"Substance": "PhoQ, residues 284 288 289 292 302 303 AANNSF", "target": "PhoP, residues 12 14 15 18 19 TTLRV (Escherichia coli, UniProt P23836)", "assay": "Sort-seq, item: YFP reporter", "test system": "E. coli", "conditions": "PhoQ-PhoP variant library, with: 10 µM Mg2+", "scale": "reference: high Mg2+ state, higher = stronger signaling", "measurement": "fold induction", "result": 7.94}
{"note": "For quick reference, copied from above (block 3):"}
{"Sequence": "GTTTCCCA", "E-score": -0.122}
